Assay results from different studies.
Each line is one published result; not all experiments were run side by side. Values joined by “and” are separate records of one study, mostly repeats; a detail may differ. ± marks the error that the study gave.

The elimination half-life of `CCCCCC(=O)[O][Pt]([Cl])([Cl])[O]C(=O)CCCCC.N.N` is reported as 38.5 h and 38.4 h (ICP-MS, measured: platinum; nude mice, blood; intravenous, 1.76 mg/kg).
With `CC(C)C[C@H](NC(=O)[C@H](CCCNC(=N)N)NC(=O)[C@H](Cc1ccccc1)NC(=O)[C@H](Cc1ccccc1)NC(=O)[C@@H](NC(=O)[C@H](CO)NC(=O)[C@H](CO)NC(=O)[C@H](CC(=O)O)NC(=O)[C@H](CO)NC(=O)[C@H](CO)NC(=O)[C@H](CC(=O)O)NC(=O)[C@H](CO)NC(=O)[C@H](CO)NC(=O)[C@H](CC(=O)O)NC(=O)[C@H](CO)NC(=O)[C@H](CO)NC(=O)[C@H](CC(=O)O)NC(=O)[C@H](CO)NC(=O)[C@H](CO)NC(=O)[C@H](CC(=O)O)NC(=O)[C@H](CO)NC(=O)[C@H](CO)NC(=O)[C@H](CC(=O)O)NC(=O)[C@H](CO)NC(=O)[C@H](CO)NC(=O)[C@H](CC(=O)O)NC(=O)[C@H](CO)NC(=O)[C@H](CO)NC(=O)[C@@H](N)CC(=O)O)[C@@H](C)O)C(=O)N[C@@H](Cc1ccccc1)C(=O)N[C@@H](CC(N)=O)C(=O)N[C@@H](CCCNC(=N)N)C(=O)N[C@@H](C)C(=O)N[C@@H](CCCCN)C(=O)N[C@@H](CCCNC(=N)N)C(=O)N[C@@H](Cc1c[nH]cn1)C(=O)N[C@@H](Cc1c[nH]cn1)C(=O)NCC(=O)N[C@@H](Cc1ccc(O)cc1)C(=O)N[C@@H](CCCCN)C(=O)N[C@@H](CCCNC(=N)N)C(=O)N[C@@H](CCCCN)C(=O)N[C@@H](Cc1ccccc1)C(=O)N[C@@H](Cc1c[nH]cn1)C(=O)O` the peptide concentration was 0.899 mg/mL (HPLC-UV; human saliva; 4 h, 37 °C, together with: initial 1 mg/mL).
For `CCCCN1C(=O)c2cccc3c(NCCCCCCN4CCOCC4)ccc(c23)C1=O`, the fluorescence lifetime was 10.6 ns (dichloromethane).
`O=[N][Fe]1([N]=O)[S](CCO)[Fe]([N]=O)([N]=O)[S]1CCO` has a serum GOT of 76 ± 57.6 U/dL (aged C57BL/6JNarl mice on Western diet; po, 2.65 mg/kg daily, 16 weeks).
Under “AUC(0-tau) accumulation ratio”, `CN1CCC[C@]1(C)/C=C/S(=O)(=O)NC(=O)Nc1c2c(cc3c1CC(O)C3)CCC2` (stereo partly drawn) is recorded as 1.8 (human, plasma; oral, 50 mg twice daily of parent drug, metabolite of dosed drug; baseline: day 14 over day 1).
With `CC[C@H](C)[C@H](NC(=O)[C@H](CCCCN)NC(=O)[C@H](CCC(=O)O)NC(=O)[C@H](CCCCN)NC(=O)[C@H](CC(C)C)NC(=O)[C@H](C)NC(=O)[C@H](C)NC(=O)[C@@H](NC(=O)[C@H](CCCCN)NC(=O)[C@@H]1CSCc2ccccc2CSC[C@H](NC(=O)[C@@H](NC(=O)[C@H](CCCCN)NC(C)=O)[C@@H](C)CC)C(=O)N[C@@H](C)C(=O)N[C@@H](CC(C)C)C(=O)N[C@@H](CCCCN)C(=O)N1)[C@@H](C)CC)C(=O)N[C@@H](C)C(=O)N[C@@H](C)C(=O)N[C@@H](CC(C)C)C(=O)N[C@@H](CCCCN)C(=O)N[C@@H](CCC(=O)O)C(=O)NCC(=O)N[C@@H](Cc1c[nH]c2ccccc12)C(N)=O` the melting temperature was 27 °C (circular dichroism thermal melting; PBS; pH 7.4, single peptide 50 µM total).
`CN1CCC[C@]1(C)/C=C/S(=O)(=O)NC(=O)Nc1c2c(cc3c1CCC3)CCC2` — result for “subjects with adverse event”: 0% (measured: glucose in urine, not related; human; oral, 12.5 mg twice daily, 14 days, multiple ascending dose).
With `CN(CCNc1ccc2ncc(-c3ccc(C(N)=O)cc3)n2n1)C(=O)OC(C)(C)C` the drug concentration was 77 nM (mouse, SNL model, brain; oral, 60 mg/kg, 120 min).
For `C/C(N)=N/C(=N\S(=O)(=O)c1ccc(C(F)(F)F)cc1)N1C[C@H](c2ccccc2)C(c2ccc(Cl)cc2)=N1`, the half-life was 8 h (beagle dog, plasma; oral, 6 mg/kg).
`Cc1cc(-c2ccc(C(=O)[C@@H]3CCCC[C@H]3C(=O)Nc3cnn4c3C(=O)NCC4)cc2)[nH]n1` — result for “radioactivity recovery per interval”: 2.02% and 0.06% and 0.1% and 0.2% (human, faeces; oral, 200 mg, 144-168 h; baseline: dose).
`CCC1CNC(CC)CN(C(C(=O)[O-])c2ccc(C(=O)[O-])cc2)C(CC)CN(CC(=O)[O-])C(CC)CN1.[Mn+2]` (stereo not drawn) has a Mn content of 9.61 ± 2.48 µg/g (ICP-MS; BALB/c mouse, kidney; intravenous, 0.05 mmol/kg, 5 min, without anaesthesia).
`CCCCN1C(=O)c2cccc3c(NCCCN4CCOCC4)ccc(c23)C1=O` has a fluorescence lifetime of 10.1 ns (DMSO).
`C=C(NC(=O)c1csc(-c2nc3c(cc2O)-c2nc(cs2)C(=O)NC(C(C)O)C(=O)NC(=C(C)OC)c2nc(cs2)C(=O)NC2c4nc(cs4)C(=O)NC(COC(=O)c4c5c6c(cccc6n4O)COC(=O)C(OC4CC(C)(O)C(N(C)C)C(C)O4)C2OC5)c2nc-3cs2)n1)C(N)=O` (stereo not drawn) has an MRT(0-last) of 1.48 h (cynomolgus monkey, both sexes, plasma; intravenous infusion, 3 mg/kg single dose).
With `Cc1nc(N)nc2c1C(=O)N[C@@H](c1ccc(F)cc1-c1cccc(OCC[18F])n1)C2` the uptake was 0.37 ± 0.05 %ID (ex vivo biodistribution; C57BL/6 mice, spleen; intravenous, 30 min).
For `[2H]C1([2H])C[C@@H](C[C@@H](C#N)NC(=O)[C@@H]2[C@@H]3[C@H](CN2C(=O)[C@@H](NC(=O)C(F)(F)F)C(C)(C)C)C3(C)C)C(=O)N1`, the intrinsic clearance was 11.8 µL/min/mg (human liver microsomes; microsomes 0.5 mg/mL).
`CCCCN1C(=O)c2cccc3c(NCCCCCN4CCOCC4)ccc(c23)C1=O`: “fluorescence quantum yield” 1.06 (ethyl acetate).
With `O=C(Nc1cnccc1-c1ccc([18F])nc1)c1ccnc(NC(=O)C2CC2)c1` the SUV was 0.676 (ex vivo gamma counting; FVB/NJ mice, both sexes, large intestine; intravenous, 120 min, mean, P-gp inhibitor pretreatment, together with: tariquidar 15 mg/kg iv).
`CCCCN1C(=O)c2cccc3c(NCCCCN4CCOCC4)ccc(c23)C1=O` gave an absorption maximum of 445 nm (DMSO).
With `Cc1c(Cc2cccc(OC(C)(C)C(=O)O)c2)c2ccc(C(=O)N[C@@H](C)c3cc(C(C)(C)C)ccc3F)cc2n1CC(C)C` the half-life was 0.717 h (metabolic stability; mouse, liver microsomes).
With `CCCC[C@H](NC(=O)CCCCCCCNC(=O)CN1CCN(CC(=O)O)CCN(CC(=O)O)CC1)C(=O)N[C@H]1CC(=O)NCCCC[C@@H](C(N)=O)NC(=O)[C@H](Cc2c[nH]c3ccccc23)NC(=O)[C@H](CCCNC(=N)N)NC(=O)[C@@H](Cc2ccccc2)NC(=O)[C@H](Cc2c[nH]cn2)NC1=O` [fluorine-18 labelled] the urinary excretion was 74.5 ± 2.12% (C57 mice, B16/F10 melanoma, urine; intravenous, 0.37 MBq, 1 h).
For `CCCC[C@H](OC(C)=O)c1ccccc1C(=O)O`, the MRT(0-inf) was 6 ± 4.9 h (beagle dogs, both sexes, whole blood; intravenous, 1.5 mg/kg single dose).
The tracer uptake of `Cc1nc(N)nc2c1C(=O)N[C@@H](c1ccc(F)cc1-c1cccc(O[11CH3])n1)C2` is reported as 9.3 ± 4.7 %ID (ex vivo biodistribution; mice, U87 subcutaneous xenograft, bone; 60 min post-injection, baseline, vehicle pre-treatment).
`CN1CCC[C@]1(C)/C=C/S(=O)(=O)NC(=O)Nc1c2c(cc3c1CCC3O)CCC2` (stereo partly drawn): “AUC(0-tau) accumulation ratio” 1.7 (human, plasma; oral, 100 mg twice daily of parent drug, metabolite of dosed drug; baseline: day 14 over day 1).
For `CN(O)C(=O)CCC(=O)NCCCN(CCCCN(CCCNC(=O)CCC(=O)N(C)O)C(=O)CCC(=O)N(C)O)C(=O)CCC(=O)N(C)O.[89Zr]`, the tracer uptake was 0.8 %ID/g (mouse, kidney; 24 h).
`CC(C)(C)NCC(SS(=O)(=O)O)c1ccccc1` (stereo not drawn) gave a body weight of 32.2 g (Swiss Webster mice, Schistosoma mansoni-infected; 600 mg/kg single dose on day 15 post-infection, perfusion day 44 post-infection).
For `CC(C)(O)c1ncc([S@](N)(=O)=NC(=O)Nc2c3c(cc4c2CCC4)CCC3)s1`, “share of subjects with TEAEs” read 78% (measured: all system organ classes; healthy human subjects; oral, dose not given, 14 days, all active doses).
The tumour-to-liver ratio of `COc1cccc(OC)c1-c1cc(C(=O)NC2(C(=O)O)C3CC4CC(C3)CC2C4)nn1-c1ccc(C(=O)N(C)CCOCCN(C)C(=O)[C@H](CCCCNC(=O)[C@H](CC(C)C)NC(=O)C2OC2C(=O)O)NC(=O)CN2CCN(CC(=O)[O-])CCN(CC(=O)[O-])CCN(CC(=O)[O-])CC2)cc1C(C)C.[177Lu+3]` (mixture of isomers) is reported as 6.01 (mouse, HT-29 xenograft; 168 h post injection, biodistribution; baseline: tumour over liver uptake).
`O=C1CCC(N2C(=O)c3ccc(N4CCC(C(=O)N5CCC(CCN6CCC(CNC(=O)c7cccc(-c8noc(C(F)(F)F)n8)c7)(c7nc(-c8ccccc8)cs7)CC6)CC5)CC4)cc3C2=O)C(=O)N1` (stereo not drawn) gave a clearance of 612 ± 79 mL/min/kg (ICR mouse, plasma; oral, 30 mg/kg).
`O=C(Nc1cnccc1-c1ccc([18F])cc1)c1ccnc(NC(=O)C2CC2)c1` gave an SUV of 3.9 (ex vivo gamma counting; GSK-3β transgenic mice, early-stage, urine; intravenous, 120 min, mean, no P-gp inhibitor).
`CCCC[C@H](NC(=O)CNC(=O)CNC(=O)[C@H](CCCCNC(=O)[C@H](CC(=O)O)NC(=O)C(C)c1ccc(CC(C)C)cc1)NC(=O)CN1CCN(CC(=O)O)CCN(CC(=O)O)CCN(CC(=O)O)CC1)C(=O)N[C@H]1CC(=O)NCCCC[C@@H](C(N)=O)NC(=O)[C@H](Cc2c[nH]c3ccccc23)NC(=O)[C@H](CCCNC(=N)N)NC(=O)[C@@H](Cc2ccccc2)NC(=O)[C@H](Cc2c[nH]cn2)NC1=O` (stereo partly drawn) [lutetium-177 labelled] — result for “tumour to blood uptake ratio”: 1.49 (C57 mice with B16/F10 melanoma; 2 h, together with: NDP blockade).
`COc1cccc(OC)c1-c1cc(C(=O)NC2(C(=O)O)C3CC4CC(C3)CC2C4)nn1-c1ccc(C(=O)N(C)CCCN(C)CCCN(C)C(=O)[C@H](CCCCNC(=O)[C@H](CC(C)C)NC(=O)C2OC2C(=O)O)NC(=O)CN2CCN(CC(=O)[O-])CCN(CC(=O)[O-])CCN(CC(=O)[O-])CC2)cc1C(C)C.[177Lu+3]` (mixture of isomers) has a tumour-to-liver ratio of 7.31 (mouse, HT-29 xenograft; 72 h post injection, biodistribution; baseline: tumour over liver uptake).
Under AUC, `CC1(C)CC[C@]2(NC(=O)C(C)(F)F)CC[C@]3(C)[C@H](C(=O)C=C4[C@@]5(C)C=C(C#N)C(=O)C(C)(C)[C@@H]5CC[C@]43C)[C@@H]2C1` is recorded as “no effect” (human, plasma; dose not given, together with: gemfibrozil; baseline: without gemfibrozil).
For `O=C([O-])CN1CCN(CC(=O)[O-])CCN(CC(CCCc2ccccc2[N+](=O)[O-])N(CC(=O)[O-])CC(=O)[O-])CC1.[90Y+3]` (stereo not drawn), “intact radiolabelled complex” read 100% (HPLC; human serum; 135 h, pH 7, 37 °C).
`CCCCN1C(=O)c2cccc3c(NCCCCCCCCN4CCOCC4)ccc(c23)C1=O` gave an absorption maximum of 426 nm (toluene).
`Cc1nn(-c2nc3c(F)cc(F)cc3s2)c(O)c1C(c1ccc(C(F)(F)F)cc1)c1c(C)nn(-c2nc3c(F)cc(F)cc3s2)c1O` has a plasma concentration of 313 ng/mL and 329 ng/mL and 150 ng/mL (ICR mouse; intraperitoneal, 10 mg/kg, 24.0 h).
The urinary sodium of `CC(C)[C@H](NC(=O)[C@H](Cc1c[nH]c2ccccc12)NC(=O)[C@H](CCCNC(=N)N)NC(=O)[C@H](CCCNC(=N)N)NC(=O)[C@@H](NC(=O)[C@@H](NC(=O)[C@H](CCCNC(=N)N)NC(=O)[C@@H](NC(=O)[C@@H](NC(=O)[C@H](CCCNC(=N)N)NC(=O)[C@H](CCCNC(=N)N)NC(=O)[C@@H](NC(=O)[C@H](Cc1c[nH]c2ccccc12)NC(=O)[C@H](CCCNC(=N)N)NC(=O)[C@H](CCCNC(=N)N)NC(=O)[C@@H](NC(=O)[C@H](CCCNC(=N)N)NC(=O)[C@H](CCCNC(=N)N)NC(=O)[C@@H](NC(=O)[C@H](Cc1c[nH]c2ccccc12)NC(=O)[C@H](CCCNC(=N)N)NC(=O)[C@@H](N)CCCNC(=N)N)C(C)C)C(C)C)C(C)C)C(C)C)C(C)C)C(C)C)C(C)C)C(=O)N[C@@H](CCCNC(=N)N)C(=O)N[C@@H](CCCNC(=N)N)C(=O)O` is reported as under 100 mEq/L (CD-1 mice; intravenous, 15 mg/kg, 6-24 h).

Excerpt of the above:
`CCCCN1C(=O)c2cccc3c(NCCCCCN4CCOCC4)ccc(c23)C1=O`: “fluorescence quantum yield” 1.06 (ethyl acetate).
With `O=C(Nc1cnccc1-c1ccc([18F])nc1)c1ccnc(NC(=O)C2CC2)c1` the SUV was 0.676 (ex vivo gamma counting; FVB/NJ mice, both sexes, large intestine; intravenous, 120 min, mean, P-gp inhibitor pretreatment, together with: tariquidar 15 mg/kg iv).
`CCCCN1C(=O)c2cccc3c(NCCCCN4CCOCC4)ccc(c23)C1=O` gave an absorption maximum of 445 nm (DMSO).
With `Cc1c(Cc2cccc(OC(C)(C)C(=O)O)c2)c2ccc(C(=O)N[C@@H](C)c3cc(C(C)(C)C)ccc3F)cc2n1CC(C)C` the half-life was 0.717 h (metabolic stability; mouse, liver microsomes).
